Measured values collected from several papers.
A part holds a random share of what one study measured.

Series 1
Target: RING finger protein unkempt homolog, zinc fingers 1-6, GST-SBP tag (UNK, Homo sapiens, UniProt Q9C0B0, residues 30-357)
Chain of UniProt Q9C0B0 (30-357, looked up): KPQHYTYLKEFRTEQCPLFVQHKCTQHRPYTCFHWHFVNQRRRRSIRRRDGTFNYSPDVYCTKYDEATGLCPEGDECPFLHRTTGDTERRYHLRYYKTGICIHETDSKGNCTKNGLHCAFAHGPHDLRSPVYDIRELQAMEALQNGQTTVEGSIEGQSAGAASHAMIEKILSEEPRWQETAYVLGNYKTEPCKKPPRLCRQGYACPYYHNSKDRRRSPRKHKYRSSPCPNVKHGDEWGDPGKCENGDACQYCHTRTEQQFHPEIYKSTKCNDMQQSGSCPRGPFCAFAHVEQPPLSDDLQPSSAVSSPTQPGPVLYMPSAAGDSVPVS
Technique: RNA Bind-n-Seq
Molecule type: RNA
Medium: in vitro
Concentration: not given
Notes: RNA with constant flanks, human and mouse sites, ends assumed
Baseline: input RNA pool
Reading: higher = stronger binding
Strand	bound/input enrichment [ratio]
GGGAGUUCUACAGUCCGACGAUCUUUUAACAAAUGUUUUCAUUUACAGGAAAUUGCAAAGAAAAUUCUCAAGUGAUAGUCUUUUUUUUUAAGUGUUUCGUAAGACAAAAAUUGAAUAAUGUUUUUUGAAGUUCUGGCAAGAUUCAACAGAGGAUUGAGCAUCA	0.458
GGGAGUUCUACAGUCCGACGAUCGAAGAGAAUGAGGAGGACAGAGAAGUGUCAAGUGAAAAAGAAUUAAAUGGAGAUUCGGAUUUAGAUCCUGAAAACGAGAGUGAAGAAGAAUGAAGACAGAUGCAGCCAGCCAGUCACACGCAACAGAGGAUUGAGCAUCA	0.411
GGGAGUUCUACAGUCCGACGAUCAUCAAAGGUGACAUCACACCUUUAAUGGCUGCUGCUAAUGGAGGACAUGUCAAAAUCGUGAAGUUGCUGCUAGCUCAUAAAGCUGAUGUCAAUGCACAGUCUUCAACAGGCAACACAGCUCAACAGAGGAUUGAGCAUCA	0.14
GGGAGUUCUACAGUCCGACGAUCUGGCAAAUGUAGCCCUGCAUCCUCCAGUGUUACCUGGUGUAGAUUUUUUUUUCUGUACCUUUCUAAACCUCUCUUCCCUCUGUGAUGGUUUUGUGUUUAAACAGUCAUCUUCUUUUAAAUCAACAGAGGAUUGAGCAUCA	1.21
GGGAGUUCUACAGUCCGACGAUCCAGCGUUGCCUCCCUGUCCUGGGCAGGGGCCACUUAUUAUUUUAUUUAUUUUUAAUUUAUAAUUUAUUCAAAUUGGAUUGCCUUGGUGACCUCCCAAACCUGAUAAUUGGCAUCACCCCACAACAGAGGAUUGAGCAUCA	3.6
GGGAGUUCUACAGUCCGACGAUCAUGGGCUUCAGUGUGGAAGAUGAGUUGCUUAAGAUAUGCUUUUAUACAACUGAUAAAAAUAUACGGGACUUUUUGGUUGAAAUUUUAAAAGAAAAGGAAUGUUUUUCUGAAAAAGAAAGACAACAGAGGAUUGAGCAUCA	0.414
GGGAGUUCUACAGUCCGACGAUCGGUAUGUUACAGUCAUAGCUCAUAAGUAGCCCAUCUCUAAUUUGUAUUGUCACAAGGCCAGAAGCCAGCCUCACUCUUUCCAGCUGACAUUGAGGUGGGAGAGAAUCUCAGGGCUCCCUGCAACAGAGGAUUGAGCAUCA	0.232
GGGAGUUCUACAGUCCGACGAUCACUAACAAAAGUGCCUCAUCAUAAAAAUACAGUUGGUUUUUAGGGUGCCAUAUUGUUAAAAUUAGAUAACUUACUUACAUUGAAUAAACGAAUGCGUUUUAUUGGUAACAGAUAUCAUUACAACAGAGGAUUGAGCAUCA	0.985
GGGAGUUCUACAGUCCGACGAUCUUUUAACAAAUGUUUUCAUUUACAGGAAAACGCAAAGAAAAUUUUGAAACGAUGGUCUUUCUUUUUAAUUAUUAUUUUAAGUGUUUUUUGUAAGACAAAAAUUGAAGUUUUUUUAAGGUUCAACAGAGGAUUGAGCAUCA	0.615
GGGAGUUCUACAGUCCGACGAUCCUUAUUGUGGAUGGCCGAGGCAAAGCAACAAUAUCUAAUGAUGGGGCCACAAUUCUGAAACUCCUCGAUGUUGUCCAUCCUGCAGCAAAGACUUUAGUGGACAUAGCCAAGUCCCAGGAUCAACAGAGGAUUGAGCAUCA	0.16
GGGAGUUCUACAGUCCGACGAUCGGAGGGAUGUUUGGAGCUGGAAUUUACUUUGCUGAAAACUCCUCAAAAAGCAAUCAGUAUGUUUAUGGAAUUGGAGGAGGAACAGGCUGUCCCACACACAAAGACAGAUCAUGUUAUAUACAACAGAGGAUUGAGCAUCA	0.495

Series 2
Target: RNA binding protein fox-1 homolog 2, RRM domain, GST-SBP tag (RBFOX2, Homo sapiens, UniProt O43251-10, residues 100-194)
Technique: RNA Bind-n-Seq
Molecule type: RNA
Medium: in vitro
Concentration: 365 nM
Notes: natural RNA segment, single round, ends assumed
Baseline: no-protein control
Reading: higher = stronger binding
Construct (chain): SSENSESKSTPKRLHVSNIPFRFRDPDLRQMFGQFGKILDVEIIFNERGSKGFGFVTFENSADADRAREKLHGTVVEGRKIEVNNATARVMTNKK
Strand	RBNS enrichment (R)
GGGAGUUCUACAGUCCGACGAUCUUAGUCCAGCCCAUUGCAGGCAUUCCUGGAACAGGUGAGAGGGUUUCUACUUCCCAUGAAGUAUAUAGGCUUACACUCAUCACCUCGUAAACAAGAACGGGCACAUUUCAUGGAAUUCUCGGGUGCCAA	0.294
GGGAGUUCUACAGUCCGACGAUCUCACCAAAAUGAGCCUCAUCCCUUUAUGCAACACAUAACCUUACUGAGGGAGGGAAAUACAGAAGCCACCUUUUUAUUUCUCUUCACUGUGUACAAGUUCACUUGUUGUCUGGAAUUCUCGGGUGCCAA	0.261
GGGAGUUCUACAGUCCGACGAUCUGCUCCAUGCCACUAGCAACCUCCUGCCAUGUGUGGCAGUCACAAAGGUCAUCAGAAUGGAGUGAGUGCUCCCUGGGAAGGCAGGCAGGACCUUCAACCAUUGGACCAAGUGGAAUUCUCGGGUGCCAA	0.432
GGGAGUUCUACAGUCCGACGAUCUGGUUUCCCAAAUGACUCAGUUUUUGCUUUCUUUUCUGAAGCCCGAGUGCUAGGUAGGAAUGGCCACAGUUUGAAGAGCUAGAAAUAGCCUUAGGUCGGGCUUCUGUUAUUGGAAUUCUCGGGUGCCAA	1.43
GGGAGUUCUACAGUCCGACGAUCAAUUUUCCAUAAGCUAUUUUGGUUUAGUGCAAAGUAUAAAAUUAUAUUUGGGGGGGAAUAAGAUUAUAUGGACUUUCUUGCAAGCAACAAGCUAUUUUUUAAAAAAAACUUGGAAUUCUCGGGUGCCAA	1.07
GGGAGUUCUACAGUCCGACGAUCAGACUUUGAAUAGAUCUAGCAAUUGGACAUUAGUAAGCCUAAGUUUUUACAUGAUUGCAUUCCUACAUUCUUGUAAACUUUAAGUAACUACCAUUGCAGUUUGUUCUUUUUGGAAUUCUCGGGUGCCAA	0.35
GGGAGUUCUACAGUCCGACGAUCGAAAGGCUUUGAGGGGCUCUGGCUGGUGGCCAGGUUGGCUUUUUGUAUUUCUGGUUGACACACCAUGGCGCUUCCCAGCACAGACAUGUGACCAGCAUGGUCCAGGAAAAUGGAAUUCUCGGGUGCCAA	1
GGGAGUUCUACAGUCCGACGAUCAGGUGACAUUUGUUCAUUCUCUAAUCCCAUCCUCUCACCCAUCCAUUUCCUCACUCAGUGGAGAUUUGCCAAAUGAAUAAACGACACCUUUGAGGCCCCAGGUGAAGCGGUGGAAUUCUCGGGUGCCAA	0.497
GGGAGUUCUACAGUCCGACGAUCCCAGAACAGUAAGUACCACUGGACCCCGAAGCUGUGAGUGCUAUCUUGGGCAGACCAAACUCAGGCCUGAUGCAACCAAGUUGCCCCUGGGUCCUAGCGACACCUCCUCAUGGAAUUCUCGGGUGCCAA	0.23

Series 3
Target: Phosphate system positive regulatory protein PHO4, full length, GST-tagged (PHO4, Saccharomyces cerevisiae, UniProt P07270, residues 1-312)
Technique: competition protein-binding microarray
Molecule type: double-stranded DNA, one strand shown
Medium: in vitro
Concentration: 2 µM
Notes: whole 60-bp probe, lowest competitor level
Together with: Cbf1 competitor, 0.05 µM
Reading: higher = stronger binding
Target sequence (chain): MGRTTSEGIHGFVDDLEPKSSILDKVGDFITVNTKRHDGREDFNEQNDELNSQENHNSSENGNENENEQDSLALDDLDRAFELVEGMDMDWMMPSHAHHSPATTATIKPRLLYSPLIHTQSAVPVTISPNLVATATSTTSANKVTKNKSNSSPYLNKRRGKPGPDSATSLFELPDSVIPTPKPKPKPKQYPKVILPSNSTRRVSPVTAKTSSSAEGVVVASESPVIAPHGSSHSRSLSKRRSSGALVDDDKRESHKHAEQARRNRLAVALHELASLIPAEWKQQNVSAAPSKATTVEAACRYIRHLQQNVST
Strand	fluorescence intensity [a.u.]
CTTTCCCGATCTTGTCACCTGACTTTAGCACATTTGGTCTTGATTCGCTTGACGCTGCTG	4330
AAAAATCTCGCAGACCATGTGACGGCCGGTACTCCTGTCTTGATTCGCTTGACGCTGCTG	7980
GTCTTGTCTCATTTTCACGTGCATTTCCCCACTTCAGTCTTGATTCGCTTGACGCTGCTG	14100
CTAACGAAGGTTTGTGAAGTGGGTGACAAGCCAAGTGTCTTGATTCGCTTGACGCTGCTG	3610
CGTCCTAGTGATTGGGGTGTGGGTGCCATGAGGAAGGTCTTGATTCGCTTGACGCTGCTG	8530
CATACCCAACCTTTTCACGTGTATTAAGATATTTGTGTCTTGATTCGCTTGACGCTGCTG	14400
AAATTACTAAGTTTTCACGTGTGATACCCCGTATGAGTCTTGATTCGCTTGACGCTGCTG	13400
CTTTCCCGATCTTGAGGTGTGGGTGTAGCACATTTGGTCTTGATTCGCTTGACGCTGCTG	5880
CGGGGTTAAGTTTGTTAAGTGGGTGGCTTGCAGCAGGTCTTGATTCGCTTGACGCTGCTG	3950
TGCGCAACAACTTGCGCGGTGGGTGTATGTCTAGAAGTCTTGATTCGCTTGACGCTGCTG	4310
TAGTTGTGCCTCGACCACGTGAGAAGGCGGTATTCAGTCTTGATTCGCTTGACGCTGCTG	14900
ATATGCGATTTCCATCACGATATGTCAATTATAGGCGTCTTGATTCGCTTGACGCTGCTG	6060
TCATGATTGTCTTGATGTGCTTTGCCGGGCTATACAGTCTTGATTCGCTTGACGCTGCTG	3650
CGCGCTTGTTATACCCACGTTATTATTTGCCCCCAAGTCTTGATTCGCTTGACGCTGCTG	9760
GTTGGCGAGGAAGATCGCGTGCGGACTAATTTTGAAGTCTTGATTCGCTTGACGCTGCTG	9280
CACTACGGTCTTAGATTCGTGCGATTTCCGGCTACCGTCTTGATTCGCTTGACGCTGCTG	5300
CGGTCAGCCAACTGGCACGTGGTGAGTGTGCCTGGAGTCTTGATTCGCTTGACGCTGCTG	21800
CTAACGAAGGTTTGTCACCTTACTTACAAGCCAAGTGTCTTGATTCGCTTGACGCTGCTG	3310

Series 4
Target: Histone acetyltransferase KAT6A, winged helix 2, GST fusion (KAT6A, Homo sapiens, UniProt Q92794, residues 85-181)
Technique: protein binding microarray
Molecule type: double-stranded DNA, one strand shown
Medium: in vitro
Concentration: not given
Notes: 8-mer, flanks averaged, mean of 2 arrays, mostly near background
Baseline: not given
Reading: higher = stronger binding
Target sequence (chain): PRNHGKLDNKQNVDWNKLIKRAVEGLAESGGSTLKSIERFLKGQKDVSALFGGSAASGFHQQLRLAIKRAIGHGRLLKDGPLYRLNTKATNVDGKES
Strand	E-score
CCATCCAA	0.0698
GAGAATCA	0.0446
CTGAGTGC	-0.0497
CGGAGTCA	-0.0606
CGTAAACA	0.00295
ATTCGTGC	0.0828
GGGTAGAA	0.0215
AATTAACG	-0.0392
AAAGGGGA	-0.158
ATGTAGTA	0.0369
CAAACTCA	0.133
CTTGCAAG	0.288
CCTGAAGG	-0.012
TAACACAA	-0.0675
ACAGCACC	-0.00388
TGTAAAAA	-0.0076
AGCATGGC	0.185
AATAGGTG	-0.173
CGCATGCG	0.11
GAAGTTGC	-0.0269

A few entries again (series 2):
Strand	RBNS enrichment (R)
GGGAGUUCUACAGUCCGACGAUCUCACCAAAAUGAGCCUCAUCCCUUUAUGCAACACAUAACCUUACUGAGGGAGGGAAAUACAGAAGCCACCUUUUUAUUUCUCUUCACUGUGUACAAGUUCACUUGUUGUCUGGAAUUCUCGGGUGCCAA	0.261
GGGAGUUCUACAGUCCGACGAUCCCAGAACAGUAAGUACCACUGGACCCCGAAGCUGUGAGUGCUAUCUUGGGCAGACCAAACUCAGGCCUGAUGCAACCAAGUUGCCCCUGGGUCCUAGCGACACCUCCUCAUGGAAUUCUCGGGUGCCAA	0.23
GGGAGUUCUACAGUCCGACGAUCGAAAGGCUUUGAGGGGCUCUGGCUGGUGGCCAGGUUGGCUUUUUGUAUUUCUGGUUGACACACCAUGGCGCUUCCCAGCACAGACAUGUGACCAGCAUGGUCCAGGAAAAUGGAAUUCUCGGGUGCCAA	1
